Measurements from different studies.
Parts stem from different laboratories: compare values within a part only.

Study 1 — technique: aptamer microarray, sandwich; molecule type: DNA with 2'F-ANA; sample: in vitro; tested at: 200 nM; added: Cy3 exosite-II aptamer, 400 nM; direction: higher = stronger binding; strand: GGTTGGTGTGGTTGG
Target: Prothrombin, mature alpha-thrombin (F2, Homo sapiens, UniProt P00734)
Setting: whole 15-mer aptamer, many near background
Modification	mean fluorescence intensity
2'F-ANA at 3 4 7 9 14 15	293 a.u.
2'F-ANA at 1 3 4 5 7 8 9 11 12 14 15	107 a.u.
2'F-ANA at 4 5 6 7 9 10 13 14	46.5 a.u.
2'F-ANA at 1 2 3 5 7 8 13 14	49.7 a.u.
2'F-ANA at 2 7 8 11 13 14	168 a.u.
2'F-ANA at 1 2 3 4 5 6 8 9 11 15	56.9 a.u.
2'F-ANA at 2 3 7 8 10 11 12 15	384 a.u.
2'F-ANA at 3 5 7 8 9 13 14	59.6 a.u.
2'F-ANA at 4 7 8 9 11 12 15	519 a.u.
2'F-ANA at 2 3 9 11 14 15	372 a.u.
2'F-ANA at 3 4 6 13 15	381 a.u.
2'F-ANA at 1 8 11 12	352 a.u.
2'F-ANA at 1 2 6 8	180 a.u.
2'F-ANA at 2 4 6 7 8 9 11 12 14	102 a.u.
2'F-ANA at 1 2 4 5 8 14 15	51.4 a.u.
2'F-ANA at 2 4 5 6 7 9 10 11 12 13 14	53.5 a.u.
2'F-ANA at 5 7 8 9 10 13 14 15	45.8 a.u.
2'F-ANA at 1 3 4 6 7 8 9 13	127 a.u.
2'F-ANA at 1 3 5 6 8 10 11 12 13 15	49.1 a.u.

Study 2 — technique: protein-binding microarray; molecule type: double-stranded DNA, one strand shown; sample: in vitro; tested at: 250 nM; setting: 60-bp whole probe; added: salmon DNA 0.4 mg/ml; reference: random background probes; direction: higher = stronger binding; constant ends, left off below: GCCTAGCAC … GTCTTGATTCGCTTGACGCTGCTG
Target: Interferon regulatory factor 7, full length, phosphomimetic (IRF7, Homo sapiens, UniProt Q92985, residues 1-503, S101K/S471D/S472D/S475D/S476D/S477D/S483D/S484D/S487D)
Target sequence (chain): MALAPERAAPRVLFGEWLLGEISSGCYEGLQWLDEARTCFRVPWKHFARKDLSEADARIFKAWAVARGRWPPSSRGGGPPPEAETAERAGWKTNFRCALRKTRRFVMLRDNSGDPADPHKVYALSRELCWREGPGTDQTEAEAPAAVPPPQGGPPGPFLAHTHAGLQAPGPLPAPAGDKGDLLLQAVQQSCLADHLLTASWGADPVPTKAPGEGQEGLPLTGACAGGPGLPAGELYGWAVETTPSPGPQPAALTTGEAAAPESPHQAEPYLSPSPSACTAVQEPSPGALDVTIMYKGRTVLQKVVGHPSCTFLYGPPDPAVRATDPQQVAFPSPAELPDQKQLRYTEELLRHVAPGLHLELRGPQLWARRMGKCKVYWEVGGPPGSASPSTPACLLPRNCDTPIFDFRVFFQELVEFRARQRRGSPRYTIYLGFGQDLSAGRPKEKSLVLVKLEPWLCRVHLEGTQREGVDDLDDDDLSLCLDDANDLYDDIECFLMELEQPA
Strand	log fluorescence [z-score]
GACGATCTCAGTCTCGCGACGTGCTAG	-0.174
GTCGGTTTCCTACTGCTGACGTGCTAG	2.71
GACGGACTGCTTCTCCTGCCGTGCTAG	-0.201
TCAGTTTTAAATTCTAAACTGTGCTAG	0.606
CCATTTTGTGTTTTCATTTTGTGCTAG	2.7
TCAGATTTCCCCACCATACTGTGCTAG	1.05
ATCTTCATGAAGTTTTAATAAGTGCTA	0.164
TCAATTCTGAATTCGAAACTGTGCTAG	2.38
GACGGTTCCCTTTTCCGGACGTGCTAG	2.9
TTAGTTTTCGGTCTCGGTTAGTGCTAG	5.46
GACGGTTTCGACACTTGGGACGTGCTA	3.67
GACGATATCGGGTTTCGAGACGTGCTA	2.98
CATTTTCTGAATGTCCTCCTGTGCTAG	2.91
TTAGCTATCCTTATCCTTTAGTGCTAG	-0.0169
GACGGTCTCCTCCTCCTGACGTGCTAG	-0.332
TCATAAGTTTCACTCTGCACTGTGCTA	2.98
TCATTTTATGCTTTCTTACTGTGCTAG	1.14
ATAGGTATCGGTCTCGGTTAGTGCTAG	2.1
TTAGGTTCCGGTTTCGATTAGTGCTAG	11.9
GACGGTATCCGTATCGGGACGTGCTAG	-0.0417
TCACCTTTCTCTTGGAGACTGTGCTAG	1.06
GTAGGACTGCTACTGCTTTAGTGCTAG	-0.831
GAACATTTCAATTAGAAAAAGTGCTAG	0.58
GACGCTTTCGGGTATCGAGACGTGCTA	1.52
GACGGACTGGGACTGGTGACGTGCTAG	-0.643

Study 3 — technique: RNA Bind-n-Seq; molecule type: RNA; sample: in vitro; tested at: 365 nM; reference: no-protein control; direction: higher = stronger binding
Target: RNA binding protein fox-1 homolog 2, RRM domain, GST-SBP tag (RBFOX2, Homo sapiens, UniProt O43251-10, residues 100-194)
Setting: natural RNA segment, single round, ends assumed
Constant ends, left off below: GGGAGUUCUACAGUCCGACGAUC … UGGAAUUCUCGGGUGCCAA
Construct (chain): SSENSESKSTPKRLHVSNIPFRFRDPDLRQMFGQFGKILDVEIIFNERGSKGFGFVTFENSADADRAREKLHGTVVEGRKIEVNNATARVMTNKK
Strand	RBNS enrichment (R)
UGGGACAUUGAAAUCCUGUGAGAGAAUCACAAAGGCACCUCCACCCACUCACGUGCUGUGUGCAUGAGAAGGAGGCCGCUGUGUUCACACUACUGCACCGCACCGCACCC	2.54
UAAUGCAGGUGGUAAACCUAAUUCCAUAAGCAUGGCCUGCCCGAGCCAGAAGGAAGAAGAGCUUGCUCCCUGGCCUGAGGAAGUGCCUCGUAGGUAGUCAUGGAAGUCAC	1.01
UUAUACUGUUCAAGCAGCUCCAACGUCCAGUCUCAACACAGCGCGCCUUCGGCCAGGCAGCGAUCCACGGACCAAACCUCCUGCGCCCUCAGCCGGUGGGUCACUUCUCC	0.451
CUCCCCACUUAAGUCCAAGUCACAUUGUCUAUCCCAGUGUGUAGCUCUGUCACCCUGCUUGACACAUCCAGUGGCCUACAGCGACUCUUCUCUAACCCCACCCCCUCCAA	0.733
GAAAGAGGAAGGAGCUGAAGUUGGUUGGCCCUGCUGCACCCCCUUACAAGGUUGUGAGGCCCUCUCCCCCCCAACUUUGUUUAAGGCAUUUUGGUUUUUUAAAAUCUGUA	0.587
UAUUUUGAUAAACACUGAAGCUGGAGCUGUUAAAUUUAUCUUGGGGAAACCUCAGAACUGGUCUAUUUGGUGUCGUGGAACCUCUUACUGCUUUCAAUACACGAUUAGUA	0.381
CUUCCUGACUGCUUUCUCCAACUGUUCACAGCAAAUGCUUGGAUUUUAUGCAGUAGGCAUUACUACAGUACAUGGCUAAUCUUCCCAAAAACUAGCUCAUUAAAGAUGAA	0.336
CUGGUCUUACUGUCCAUGUGUGUUUGGGCCCGGAUGGUCAGGGUGGGGAGCAGGGACGGCCAUGGGCACGCCUGGCCACGCUUUACCGACUGCUGACCCCCUGGGCCAGG	0.561
CCCUUCACCUCGCACUUACUGCCUGGGAACCACGGCCCUUCUCUUCUGUGGGUCUGUACCAGGUACUCCAGGCCAGCCCAUGGGCCCGGGGCCUGACCCCAACACCUGCA	2.02
GGCCCAGCCUCCUGCUCGCACCUCCUGCCCUACCUAGGAAGCCCUCCAGAGGGCCAGCCUCUGCUGAGCGGGGGAAGUGGGCACUGACUACAGCAGGUGGAGAUGGUGCA	0.603
AUGAAGUCGGUGUUACAUAAAAGUAGGUGAUAUGUAAGUUUUCUGAUAACAAGGUUCUAAUAGUGUUUAAAUGUACUGGUAACCUGGUUCCAAUAGUUGUGUUUGCCCAA	2.38
GAUGUAUGAUAAAGAUGAUCUAAUUUGUGAAUGCAUAUGUGUGCGUGGUUACUUUUUAUAAUGUGAAAUGGAUAAUGAGCGUAUUUAAAAUAAAGCAGAGGUUAAUGAGA	2.43

Study 4 — technique: RNA Bind-n-Seq; molecule type: RNA; sample: in vitro; tested at: 200 nM; setting: whole 134-nt RNA, ends assumed; added: 150 mM KCl; reference: input library; direction: higher = stronger binding
Target: Ras GTPase-activating protein-binding protein 1, full length (G3BP1, Homo sapiens, UniProt Q13283)
Sequence of UniProt Q13283 (whole entry, looked up): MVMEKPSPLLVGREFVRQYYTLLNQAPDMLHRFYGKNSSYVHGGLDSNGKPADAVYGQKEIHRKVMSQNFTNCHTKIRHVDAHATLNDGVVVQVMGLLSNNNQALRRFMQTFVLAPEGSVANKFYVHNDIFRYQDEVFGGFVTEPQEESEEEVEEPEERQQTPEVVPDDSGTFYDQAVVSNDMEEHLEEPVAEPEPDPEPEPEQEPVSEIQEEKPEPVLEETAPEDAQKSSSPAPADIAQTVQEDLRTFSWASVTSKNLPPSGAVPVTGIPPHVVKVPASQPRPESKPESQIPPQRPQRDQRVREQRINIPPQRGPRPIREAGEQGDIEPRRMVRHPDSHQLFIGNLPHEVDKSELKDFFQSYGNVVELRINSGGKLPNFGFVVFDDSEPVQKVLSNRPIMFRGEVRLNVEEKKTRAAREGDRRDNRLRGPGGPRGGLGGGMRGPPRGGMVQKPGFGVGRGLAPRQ
Constant ends, left off below: GGGAGUUCUACAGUCCGACGAUC … UGGAAUUCUCGGGUGUCAAGG
Strand	log2 enrichment
UGGCCCUGGUGGCAUGCGGGGAGGAAGAGGUGGCCUCAUGGAUCGUGGUGGUCCCGGUGGAAUGUUCAGAGGUGGCCGUAGUGGAGACAG	0.0401
UCCUGUGCUACACAUCGUAUGUACCGAAUCGGCCCCCCCGGGCCCCCCCGGCCCCCCCGGAAAGUAUUAUGUUACGCCGUUCGGAUCUGC	0.302
ACCAUGCAGGUGGGCAUCUUUGGGAAGUGGGGCAUGGGGGGGAUAGGGAGGGGGGUAACACUUUGGGAACAGGUGGUCCCAGGUCGUUUC	1.41
UCUCAGCACCCUCGUGAAACUGGACAAGAAGCCAGUGGAGACCAACGGUCCUGAUGCCAAUCACGAGUACAGUACAAGCAGCCAGCAUAU	-0.586
UGGGAGGUGGAUUUUGUGUAUUUUUUUAGCUCAUUUCCAGGGGUGGGAAUUUUUUUUUAAUAUGUGUCAUGAAUAAAGUUGUUUUUGAAA	0.177
CGGCAGUAGCAGCAGCGCCGGGUCCCGUGCGGAGGUGCUCCUCGCAGAGUUGUUUCUCGAGCAGCGGCAGUUCUCACUACAGCGCCAGGA	-0.97
CCUGUGCUACACAUCGUAUGUACCGAAUCGGGGAAAAAAGGAAAAAAGGGGAAAAAAGGGAAAGUAUUAUGUUACGCCGUUCGGAUCUGC	-0.542
ACCAUGCAGGUGGGCAUCUUUGGGAAGUGGGGCAAGGGGGGGAUAGGGAGGGGGGUAACACUUUGGGAACAGGUGGUCCGAGGUCGUUUC	1.33
UCAAGUCCUGUGCUACACAUCGUAUGUACCGAAUCGGCCCGGGGCCCGGCCCGGGAAAGUAUUAUGUUACGCCGUUCGGAUCUGCACUUC	-0.845
UCCUGUGCUACACAUCGUAUGUACCGAAUCGGGAAAAAAAGGGAAAAAAAGGGAAAGGGAAAGUAUUAUGUUACGCCGUUCGGAUCUGCA	-0.313
CCUGUGCUACACAUCGUAUGUACCGAAUCGGGGUUUUUUGGUUUUUUGGGUUUUUUGGGGAAAGUAUUAUGUUACGCCGUUCGGAUCUGC	-0.835
GUCCUGUGCUACACAUCGUAUGUACCGAAUCAAACCCAAACCCCCAAACCCCCCCAAAAAAGUAUUAUGUUACGCCGUUCGGAUCUGCAC	-0.282
AAGUCCUGUGCUACACAUCGUAUGUACCGAAUCGGGGAGGGGUUUUUGGGGUGGGGAAAGUAUUAUGUUACGCCGUUCGGAUCUGCACUU	0.546
UAACUUUAGAGGAGGAUCUGAUGGAUAUGGCAGUGGACGUGGAUUUGGGGAUGGCUAUAAUGGGUAUGGAGGAGGAACUGGAGGUGGCAA	0.43

Some of these lines once more (study 2):
Strand	log fluorescence [z-score]
GACGATCTCAGTCTCGCGACGTGCTAG	-0.174
GTCGGTTTCCTACTGCTGACGTGCTAG	2.71
GACGGACTGCTTCTCCTGCCGTGCTAG	-0.201
TCAGTTTTAAATTCTAAACTGTGCTAG	0.606
CCATTTTGTGTTTTCATTTTGTGCTAG	2.7
TCAGATTTCCCCACCATACTGTGCTAG	1.05
ATCTTCATGAAGTTTTAATAAGTGCTA	0.164
TCAATTCTGAATTCGAAACTGTGCTAG	2.38
GACGGTTCCCTTTTCCGGACGTGCTAG	2.9
